Measured values collected from several papers.
Each numbered part is a random draw from the data of one study; scales do not carry over between parts. Changes are numbered by the printed parent chain.

Sample 1
Target: Centromere-binding protein 1, full length, N-terminal tag (CBF1, Saccharomyces cerevisiae, UniProt P17106, residues 1-351)
Chain of UniProt P17106 (whole entry, looked up): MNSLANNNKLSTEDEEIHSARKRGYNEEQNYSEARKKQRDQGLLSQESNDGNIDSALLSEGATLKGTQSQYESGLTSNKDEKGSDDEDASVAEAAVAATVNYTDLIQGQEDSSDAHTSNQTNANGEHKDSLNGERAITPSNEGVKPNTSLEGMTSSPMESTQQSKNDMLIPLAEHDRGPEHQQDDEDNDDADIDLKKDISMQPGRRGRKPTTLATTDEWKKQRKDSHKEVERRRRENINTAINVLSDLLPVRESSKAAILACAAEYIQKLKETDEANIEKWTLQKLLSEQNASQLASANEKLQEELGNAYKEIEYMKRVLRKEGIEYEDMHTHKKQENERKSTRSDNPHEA
Method: protein-binding microarray
Molecule type: double-stranded DNA, one strand shown
Sample: in vitro
Tested at: 0.8 µM
Notes: whole 60-bp probe, no competitor
Direction: higher = stronger binding
Shared flanks, not repeated: … GTCTTGATTCGCTTGACGCTGCTG
The fluorescence intensity of `GAAGCCGAGAAGTTACTCGTGCAATTCACTACGTAG` is reported as 562 a.u.
With `TGTACGAAGCTATAACTCACCTGTATAGTAGTTAGG` the fluorescence intensity was 545 a.u.
For `CTATTTCAGTAAACTGTGATCACGAGTCTGCAATTC`, the fluorescence intensity was 5380 a.u.
`CTAGCTCTTGCTTTCGAGGTGACATAGCATTTTTTC` has a fluorescence intensity of 525 a.u.
With `GAACACCGCTTCCATTATCAGGTGCCTCTGCTCTAG` the fluorescence intensity was 757 a.u.
`TGTACGAAGCTATTCCATCTGATTATAGTAGTTAGG` has a fluorescence intensity of 533 a.u.
`CTAACATAACTTGAAAAGCTGATGGGTGTCAAGTTC` has a fluorescence intensity of 514 a.u.
With `CTAGGCGGGATCTGGCCCGTGGAAATCGTATGGTTC` the fluorescence intensity was 490 a.u.

Sample 2
Target: RING finger protein unkempt homolog, zinc fingers 1-6, GST-SBP tag (UNK, Homo sapiens, UniProt Q9C0B0, residues 30-357)
Method: RNA Bind-n-Seq
Molecule type: RNA
Sample: in vitro
Tested at: not given
Notes: RNA with constant flanks, ends assumed
Baseline: input RNA pool
Direction: higher = stronger binding
Shared flanks, not repeated: GGGAGUUCUACAGUCCGACGAUC … CAACAGAGGAUUGAGCAUCA
Target sequence (chain): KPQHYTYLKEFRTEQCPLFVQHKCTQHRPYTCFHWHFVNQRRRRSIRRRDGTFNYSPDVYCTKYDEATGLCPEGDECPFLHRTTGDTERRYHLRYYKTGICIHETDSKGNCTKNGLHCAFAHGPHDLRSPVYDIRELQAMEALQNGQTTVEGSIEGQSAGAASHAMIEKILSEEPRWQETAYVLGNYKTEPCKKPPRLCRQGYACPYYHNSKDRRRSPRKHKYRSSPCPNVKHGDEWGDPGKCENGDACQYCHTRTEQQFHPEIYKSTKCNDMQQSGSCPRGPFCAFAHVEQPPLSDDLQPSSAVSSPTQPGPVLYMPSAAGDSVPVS
For `GUUUUUUUUUUUUUUUUUUUUUUGCUGCUGACAUUGUAAUUAGCAUAUUCUCAACAGCAAUCCGGAAACAAUGCCUUAUAUAUGUGCUUUGGGGGGUUGAAGGGACAAAGUAGUAGCUGU`, the bound/input enrichment was 1.32 ratio.
For `AGUAAGAAUCUACCAAUUCUCAGGCACCAAGGGCAGCAGUUGGCAAACAAGUUGCAAUGUCCUUUUGCCGAUGUACCUGCUGGUACAUAUCCUCGUAAAUUUAAUGAAACCCAAAUAAAG`, the bound/input enrichment was 0.0777 ratio.
For `GUUGUUCUUGUAGUGUUUGUUGCUAUUGUUAGAAAGAUUAUUAGUGAUAUGUGGGGUGUCUCCGCUAAACAACAGACACAUGUAAGAAAACACCAGUUUGAUCAUGGAGAGCUGGUUUAC`, the bound/input enrichment was 7.4 ratio.
For `GGACAUCUCCAGUCAGAAAGUGGAGCAGUUCCGAAGAGGAAAGACCCCUUAACACAUGCCCGUAAUUCAUUGCCUCGAUCAAAAACUGUCCUGAAAAGUGGCUCCGCAGGGCUCUCCGGU`, the bound/input enrichment was 0.155 ratio.
The bound/input enrichment of `CAGGAGUGUGGGGAGUGCUUUGCUCAUAGCUCUGACCUCACUGAGCACCAGAAGAUUCAUGACCGGGAGAAGCCCUCUGGAAGCAGAAACUAUGAAUGGUCUGUCAUUCGCAGCUUGGCC` is reported as 0.0885 ratio.
For `GUAUGGUUACUAAAAAGUACCAGCAUGUUAACUUUAUUACAAUUUGUAUUACUUUCUCUGCCGUUCCUAAUGGAUUCAAUUACGGACUCUGGAUAUUUGCACUUAUGUACUUGAUACUGA`, the bound/input enrichment was 0.479 ratio.
`CCUGAGUUCGAGCCAGUUUUUAGUCUUUUUGCCUUCACCAACAAAAUUACUUCUGUGCACAGCCGAAUUAUUUGGUCUUGUGAUUGGAGUCCUGACAGCAAGUAUUUCUUCACUGGGAGU` gave a bound/input enrichment of 0.477 ratio.
`CUAAGCUCAGCUAAUGGAAGAAGAGUCUAGUUUCUUUGAGGCUUUGAUUUUGGUUAAACUACCGAGCUCAUACCUUUCUGUAUGGUGCAGCUUACUAUUGUCUUUGGAUUGGUAACUUAA` has a bound/input enrichment of 0.0433 ratio.

Sample 3
Target: Prothrombin, mature alpha-thrombin (F2, Homo sapiens, UniProt P00734)
Method: aptamer microarray, sandwich
Molecule type: DNA with 2'F-ANA
Sample: in vitro
Tested at: 200 nM
Notes: whole 15-mer aptamer, many near background
Added: Cy3 exosite-II aptamer, 400 nM
Direction: higher = stronger binding
Oligonucleotide: GGTTGGTGTGGTTGG
Under “mean fluorescence intensity”, `2'F-ANA at 2 3 6 7 8 9 11 13 14` is recorded as 292 a.u.
For `2'F-ANA at 2 5 6 9 10`, “mean fluorescence intensity” read 47.8 a.u.
`2'F-ANA at 3 4 5 6 10 11 14`: “mean fluorescence intensity” 43.2 a.u.
For `2'F-ANA at 3 4 8 11 14`, “mean fluorescence intensity” read 356 a.u.
`2'F-ANA at 1 3 6 7 8 9 11 12 14` — result for “mean fluorescence intensity”: 112 a.u.
For `2'F-ANA at 2 4 15`, “mean fluorescence intensity” read 359 a.u.
`2'F-ANA at 3 4 5 6 7 8 9 10` — result for “mean fluorescence intensity”: 55.5 a.u.
`2'F-ANA at 1 4 6 9 11 12 14`: “mean fluorescence intensity” 54.1 a.u.

Mixed results
Starting sequence: viral docking peptide; YKVKRRLVFGADD
`K2G`: “normalised enrichment score” 2.58 (CCNB2, cyclin fold, Cln2 fusion (human); yeast growth competition, sequencing; yeast; strong parent motif; baseline: not given, higher = stronger binding).

Some of these lines once more (sample 1):
`CTAACATAACTTGAAAAGCTGATGGGTGTCAAGTTC` has a fluorescence intensity of 514 a.u.
The fluorescence intensity of `GAAGCCGAGAAGTTACTCGTGCAATTCACTACGTAG` is reported as 562 a.u.
